Measurements of several laboratories.
Lines come from different studies, so protocols differ. Numbers after ± are the reported error.

O=C(Nc1ccccc1)C1CCN(C(=O)Oc2cccnc2)CC1 — result for “change in Reality score”: 0.3 (psychotropic effects VAS; healthy women; 100 mg; relative to: pre-dose baseline, direction not given).
Under micronucleus test, CC(C)CC(=O)OC[C@H]1O[C@@](C#N)(c2ccc3c(N)ncnn23)[C@H](O)[C@@H]1O is recorded as “negative” (Sprague-Dawley rat, bone marrow; oral, two days twice daily).
COc1cc2c(Oc3ccc4[nH]c(C)cc4c3F)ccnc2cc1OCC1(N)CC1 — result for “grade 3 sinus arrhythmia”: 0% (paediatric recurrent refractory sarcoma; 8 mg/kg).
Under “serious adverse event incidence”, COc1ccc(-c2c(-c3ccc(C#N)c(F)c3)nc(N3CCC(N)CC3)n(C)c2=O)cc1F is recorded as 2% (refers to: Urticaria; human patients; oral, dose not given, dose escalation, NG).
For Clc1ccc(Cl)c(-c2cc(Cl)ccc2Cl)c1, the organ weight was 0.43 g (Sprague Dawley rat, spleen; intraperitoneal, 1 mg/kg).
For Clc1ccc(C(c2ccccc2Cl)C(Cl)Cl)cc1 (centres unmarked), “trough plasma concentration” read 4000 ng/mL (human, plasma; concentration not given, 10 days).
Under “List of Complaints score”, Fc1ccc([C@@H]2CCNC[C@H]2COc2ccc3c(c2)OCO3)cc1 is recorded as 0 score (refers to: Shivering; healthy volunteers; oral, dose not given, given -1 h relative to LSD, with: LSD; direction not given).
With CCC[C@@](N)(CO)CCc1ccc(OCCCCCC(C)C)cc1 the AUC(0-inf) was 14.7 µM·h (hound dogs, male; oral, 10 mg/kg, capsule, fed state, geometric mean).
CCc1ccc(CC/C=C/c2ccc3c(c2)C(=O)CC3)cc1: “AST serum activity” 115 U/L (Sprague-Dawley rat, female; oral, 450 mg/kg/day, 14 days).
C[C@@H](c1nc(-c2ccc(C#N)cc2)cs1)[C@](O)(Cn1cncn1)c1cc(F)ccc1F — result for “subjects with TEAEs”: 8.7% (refers to: contact dermatitis; humans; oral, dose not given, with: midazolam).
The diarrhoea incidence of CO[C@H]1C[C@@H]2CC[C@@H](C)[C@@](O)(O2)C(=O)C(=O)N2CCCC[C@H]2C(=O)O[C@H]([C@H](C)C[C@@H]2CC[C@@H](OC(=O)NCCOCCOCCOCCOCCOCCOCCOCCOCCC(=O)N3CCc4cc(Cn5nc(-c6ccc7oc(N)nc7c6)c6c(N)ncnc65)ccc4C3)[C@H](OC)C2)C[C@@H](O)[C@H](C)/C=C(\C)[C@@H](O)[C@@H](OC)C(=O)[C@H](C)C[C@H](C)/C=C/C=C/C=C/1C is reported as 31.3% (patients with advanced solid tumours; intravenous, 8 mg weekly, any grade).
Under “drug-related decreased neutrophil”, C[C@@H](NC(=O)N1C(=O)[C@H](Cc2ccnc(N)c2)[C@H]1C(=O)O)C1CCCCC1 is recorded as 0% (healthy adult Chinese volunteers; continuous intravenous infusion, 2.25 mg/kg/h, 5-day infusion, CTCAE 5.0 grading).
For CCCSc1ccc2nc(NC(=O)OC)[nH]c2c1, the plateletcrit was 0.08% (mouse, blood; oral, 50 mg/kg, tolerability, mean).
Under “body weight gain”, Oc1ccc(CSCc2ccc(O)cc2)cc1 is recorded as 6.05 ± 1.35 g (ICR mice male; oral, 6000 mg/kg, day 8, acute toxicity; relative to: day 1).

Repeated from above:
Under “drug-related decreased neutrophil”, C[C@@H](NC(=O)N1C(=O)[C@H](Cc2ccnc(N)c2)[C@H]1C(=O)O)C1CCCCC1 is recorded as 0% (healthy adult Chinese volunteers; continuous intravenous infusion, 2.25 mg/kg/h, 5-day infusion, CTCAE 5.0 grading).
For CCCSc1ccc2nc(NC(=O)OC)[nH]c2c1, the plateletcrit was 0.08% (mouse, blood; oral, 50 mg/kg, tolerability, mean).
